Measured values collected from several papers.
Lines come from different studies, so protocols differ. Values joined by “and” are separate records of one study, mostly repeats; a detail may differ. ± gives the spread as reported.

SMILES = C[C@H](CCC(=O)NCC(=O)O)[C@H]1CC[C@H]2[C@@H]3[C@H](O)C[C@@H]4C[C@H](OS(=O)(=O)O)CC[C@]4(C)[C@H]3CC[C@]12C; system = healthy human volunteers, plasma; conditions = dose not given, 0 h, baseline phase, no drug; plasma concentration = 91.8 ± 20.9 nM
SMILES = CCC(=O)N(C)c1ccc(Cl)c(Cl)c1; system = mouse C57BL/6, female, plasma; conditions = subcutaneous, 2 mg/kg, 2 h; plasma concentration = 18.1 ng/mL
SMILES = Cc1nn(-c2nc3c(F)cc(F)cc3s2)c(O)c1C(c1ccc(C(F)(F)F)cc1)c1c(C)nn(-c2nc3c(F)cc(F)cc3s2)c1O; system = ICR mouse; conditions = intraperitoneal, 10 mg/kg, 0.25 h, mean, abnormal animal excluded; plasma concentration = 578 ng/mL
SMILES = O=C(NS(=O)(=O)c1cccs1)c1cc2ccccc2n1Cc1ccc(Br)c2ccccc12; system = Sprague-Dawley rat, male, plasma; conditions = intravenous bolus, 2 mL/kg, 2 h; plasma concentration = 106 ng/mL and 65 ng/mL
SMILES = Cc1noc(C)c1Cn1cc(N2C(=O)CN(Cc3cccc(OS(=O)(=O)O)c3)C2=O)cn1; system = Sprague-Dawley rat, male; conditions = oral, 30 mg/kg of parent drug, 1 h; plasma concentration = 2980 ng/mL
SMILES = CC(CCC(=O)NCC(=O)O)C1CCC2C3CCC4CC(OC5OC(C(=O)O)C(O)C(O)C5O)CCC4(C)C3CC(O)C12C (stereo not drawn); system = healthy human volunteers, plasma; conditions = dose not given, 0 h, control phase, probe drugs alone; plasma concentration = 150 ± 53 nM
SMILES = C[C@]12C[C@H](c3ccc(S(C)(=O)=O)cc3)C3=C4CCC(=O)C=C4CC[C@H]3[C@@H]1CC[C@@]2(O)C(F)(F)C(F)(F)F; test = item: compound (parent); system = healthy human volunteers, pooled plasma; conditions = oral, 5 mg daily, day 28, 72 h; plasma concentration = 5.84 ng/mL
SMILES = Cc1noc(C)c1Cn1cc(N2C(=O)CN(Cc3cccc(O[C@@H]4O[C@H](C(=O)O)[C@@H](O)[C@H](O)[C@H]4O)c3)C2=O)cn1; system = rat Sprague-Dawley male, plasma; conditions = intravenous, 1 mg/kg of parent drug, 0.08 h; plasma concentration = 315 ng/mL
SMILES = C=C[C@]1(C)C[C@@H](OC(=O)CSc2ccc(NC(=O)c3ccco3)cc2)[C@]2(C)[C@H](C)CC[C@]3(CCC(=O)[C@H]32)[C@@H](C)[C@@H]1O; system = Mycoplasma gallisepticum-infected chickens, plasma; conditions = intramuscular, 40 mg/kg, 10 h; plasma concentration = 58.4 ng/mL and 74 ng/mL and 80.4 ng/mL and 60.3 ng/mL and 51.4 ng/mL and 57.4 ng/mL and 57.5 ng/mL and 56.1 ng/mL

For quick reference, copied from above:
SMILES = CC(CCC(=O)NCC(=O)O)C1CCC2C3CCC4CC(OC5OC(C(=O)O)C(O)C(O)C5O)CCC4(C)C3CC(O)C12C (stereo not drawn); system = healthy human volunteers, plasma; conditions = dose not given, 0 h, control phase, probe drugs alone; plasma concentration = 150 ± 53 nM
